# Experimental data gathered from unrelated publications.
# ± marks the error that the study gave.
Molecule,target or system,assay,system,conditions,how to read,measurement,value
hydroxocobalamin,,survival,zebrafish larvae 6 dpf,"4 h, DMSO solution, added: KCN 100 µM",,EC100,100 µM
Oc1cccc(N2[C@@H]3CC[C@H]2CN(CCCc2ccccc2)C3)c1,,antinociception reversal,mouse,"intraperitoneal, 15 min, added: fentanyl 1 mg/kg ip",,naltrexone ID50,0.408 mg/kg
NC12CC3CC(CC(C3)C1)C2,Influenza A virus,"viral replication, plaque size reduction","MDCK, A/Swine/Iowa/9-0805/2009 (H1N1)",,,EC50,36.6 ± 6.7 µM
AEOL 10150,,multiplex immunoassay,"rat, status epilepticus, piriform cortex","sc, 7 mg/kg every 4 h, 24 h, from 5 min post-SE",,KC/GRO level,no effect
CN1CC[C@]23c4c5ccc(O)c4O[C@H]2[C@@H](O)C=C[C@H]3[C@H]1C5,,,C57BL/6J male mice,"subcutaneous, dose not given",reference: baseline,maximal body temperature change,-6 °C
C[n+]1ccccc1C=NO,,"reactivator, up-and-down method",mice,,reference: NIMP LD50 untreated,protective ratio,1.07 fold NIMP LD50
CO[C@]12CC[C@@]3(C[C@@H]1[C@](C)(O)c1ccccc1)[C@H]1Cc4ccc(O)c5c4[C@@]3(CCN1CC1CC1)[C@H]2O5,,"antinociception, antagonist, hot-plate test",mice,"dose not given, added: morphine and ethylketocyclazocine",,duration of antagonism,≤ 24 h
Pillar[6]MaxQ,,"host-guest binding, isothermal titration calorimetry",20 mM sodium phosphate buffer,"pH 7.4, added: phencyclidine",,Kd,0.0171 µM
O=C(N[C@H]1CC[C@@]2(O)[C@H]3Cc4ccc(O)c5c4[C@@]2(CCN3CC2CC2)[C@H]1O5)c1cccc2cc[nH]c12,,"antagonist, drug discrimination",rat,"subcutaneous, 10 mg/kg, trained fentanyl 0.04 mg/kg vs saline, added: fentanyl",,duration of attenuation,≤ 300 min
cisplatin,,UV-Vis spectroscopy,0.1% DMSO in water,1 mM,,saturating cyanide concentration,~25 mM
C=CCN1CC[C@]23c4c5ccc(O)c4O[C@H]2C(=O)CC[C@@]3(O)[C@H]1C5,,"respiration, whole-body plethysmography",Swiss Webster mouse,"subcutaneous, 3 mg/kg, added: fentanyl 0.15 mg/kg subcutaneous",,time to minute volume rise,≤ 10 min

# A few entries again:
Molecule,target or system,assay,system,conditions,how to read,measurement,value
hydroxocobalamin,,survival,zebrafish larvae 6 dpf,"4 h, DMSO solution, added: KCN 100 µM",,EC100,100 µM
